{"data": "Assay results gathered from unrelated publications", "note": "Every numbered part comes from another study and shows a few of its results, in no order. Changes are numbered by the printed parent chain."}
{"data": "Study 1", "target": "ABI1, truncated, D143A, DHFR fusion (Arabidopsis thaliana)", "method": "DHFR PCA, deep sequencing", "medium": "yeast", "notes": "methotrexate growth selection, single substitutions", "with": "(+)-ABA 710 µM", "reference": "wild-type fitted maximum", "reading": "higher = stronger binding", "starting sequence": "PYL1, truncated, DHFR fusion (Arabidopsis thaliana); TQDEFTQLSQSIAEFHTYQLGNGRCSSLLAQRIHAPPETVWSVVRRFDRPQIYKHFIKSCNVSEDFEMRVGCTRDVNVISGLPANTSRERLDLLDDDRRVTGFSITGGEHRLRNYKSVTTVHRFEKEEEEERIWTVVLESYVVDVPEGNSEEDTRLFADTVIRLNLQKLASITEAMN"}
{"Variant": "D95A", "relative binding score": "74.1%"}
{"Variant": "W41A", "relative binding score": "-8.18%"}
{"Variant": "W134F", "relative binding score": "110%"}
{"Variant": "T86C", "relative binding score": "103%"}
{"Variant": "V43A", "relative binding score": "88%"}
{"Variant": "T173Q", "relative binding score": "68.2%"}
{"Variant": "T160S", "relative binding score": "91.9%"}
{"Variant": "R49V", "relative binding score": "89.9%"}
{"Variant": "V76A", "relative binding score": "72.5%"}
{"Variant": "A35R", "relative binding score": "65%"}
{"Variant": "R111H", "relative binding score": "70.1%"}
{"Variant": "F124Q", "relative binding score": "107%"}
{"Variant": "T119M", "relative binding score": "101%"}
{"Variant": "F66D", "relative binding score": "96.1%"}
{"Variant": "I12A", "relative binding score": "75.2%"}
{"Variant": "Y141M", "relative binding score": "46%"}
{"Variant": "T106A", "relative binding score": "89.5%"}
{"Variant": "R155K", "relative binding score": "99.5%"}
{"Variant": "M68S", "relative binding score": "88.1%"}
{"Variant": "E128D", "relative binding score": "111%"}
{"Variant": "T17Y", "relative binding score": "100%"}
{"Variant": "Y115C", "relative binding score": "15.8%"}
{"Variant": "F157W", "relative binding score": "38.9%"}
{"data": "Study 2", "target": "CCNB1, cyclin fold, Cln2 fusion (human)", "method": "yeast growth competition, sequencing", "medium": "yeast", "notes": "weak parent motif", "reference": "not given", "reading": "higher = stronger binding", "starting sequence": "CDKN1A docking peptide (human); SKACRRLFGPVDS"}
{"Variant": "SKALRRLFGPVDS [C4L]", "normalised enrichment score": 0.0744}
{"Variant": "SKACRRLFGPCDS [V11C]", "normalised enrichment score": 0.432}
{"Variant": "SKACRRLVGPVDS [F8V]", "normalised enrichment score": 0.575}
{"Variant": "SKECRRLFGPVDS [A3E]", "normalised enrichment score": 0.296}
{"Variant": "SKACRRLFGYVDS [P10Y]", "normalised enrichment score": 0.533}
{"Variant": "SKAIRRLFGPVDS [C4I]", "normalised enrichment score": 0.0878}
{"Variant": "SKACRRLFGPVLS [D12L]", "normalised enrichment score": 0.119}
{"Variant": "SEACRRLFGPVDS [K2E]", "normalised enrichment score": 0.416}
{"Variant": "SKACRNLFGPVDS [R6N]", "normalised enrichment score": 0.195}
{"Variant": "SKACMRLFGPVDS [R5M]", "normalised enrichment score": 0.0571}
{"Variant": "SKACRRLFFPVDS [G9F]", "normalised enrichment score": 0.703}
{"Variant": "SKAGRRLFGPVDS [C4G]", "normalised enrichment score": 0.172}
{"Variant": "SCACRRLFGPVDS [K2C]", "normalised enrichment score": 0.011}
{"Variant": "SKACRRLFGPVHS [D12H]", "normalised enrichment score": -0.0762}
{"Variant": "SKACRRMFGPVDS [L7M]", "normalised enrichment score": 0.394}
{"Variant": "SKACRRLFEPVDS [G9E]", "normalised enrichment score": 0.133}
{"data": "Study 3", "target": "Histone acetyltransferase KAT6A, winged helix 1, GST fusion (KAT6A, Homo sapiens, UniProt Q92794, residues 1-85)", "method": "protein binding microarray", "molecule type": "double-stranded DNA, one strand shown", "medium": "in vitro", "tested at": "not given", "notes": "8-mer, flanks averaged, mean of 2 arrays, mostly near background", "reference": "not given", "reading": "higher = stronger binding", "Target sequence (chain)": "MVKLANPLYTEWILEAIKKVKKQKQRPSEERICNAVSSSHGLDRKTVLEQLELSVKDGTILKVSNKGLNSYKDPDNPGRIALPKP"}
{"Oligonucleotide": "CCTAGTTC", "E-score": -0.189}
{"Oligonucleotide": "TATACGCA", "E-score": 0.0474}
{"Oligonucleotide": "GAGCAATC", "E-score": -0.036}
{"Oligonucleotide": "GTTTATTA", "E-score": 0.0628}
{"Oligonucleotide": "CGTATTTC", "E-score": -0.104}
{"Oligonucleotide": "AACTCGAC", "E-score": -0.146}
{"Oligonucleotide": "AGATAGCT", "E-score": -0.159}
{"Oligonucleotide": "AACGTCTA", "E-score": -0.175}
{"Oligonucleotide": "ATGCGTCG", "E-score": 0.275}
{"Oligonucleotide": "AACCGAAA", "E-score": -0.0878}
{"Oligonucleotide": "CTTTGCAA", "E-score": -0.168}
{"Oligonucleotide": "GAGTGACC", "E-score": -0.129}
{"Oligonucleotide": "ACCTCCCT", "E-score": -0.236}
{"Oligonucleotide": "TGGTACAA", "E-score": -0.172}
{"Oligonucleotide": "ATGTGCAA", "E-score": -0.206}
{"Oligonucleotide": "CAGCCGCC", "E-score": 0.347}
{"Oligonucleotide": "AAGTCGAT", "E-score": -0.0886}
{"Oligonucleotide": "CAGAGCAA", "E-score": -0.236}
{"Oligonucleotide": "AACCAATG", "E-score": -0.215}
{"data": "Study 4", "target": "DBP, bZIP domain (human)", "method": "DHFR protein complementation", "medium": "yeast", "notes": "single substitutions, most at no-binding floor", "reference": "wild-type JUN-FOS pair", "reading": "higher = stronger binding", "starting sequence": "JUN, bZIP domain (human); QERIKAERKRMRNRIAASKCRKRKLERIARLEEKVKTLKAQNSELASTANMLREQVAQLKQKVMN; partner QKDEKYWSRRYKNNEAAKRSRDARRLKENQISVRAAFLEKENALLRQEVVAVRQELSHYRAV"}
{"Variant": "E44K", "binding fitness": "-1.48 natural log"}
{"Variant": "R30M", "binding fitness": "-1.17 natural log"}
{"Variant": "K39P", "binding fitness": "-1.51 natural log"}
{"Variant": "Q58P", "binding fitness": "-1.41 natural log"}
{"Variant": "A40N", "binding fitness": "-1.63 natural log"}
{"Variant": "A49H", "binding fitness": "-1.5 natural log"}
{"Variant": "E33M", "binding fitness": "-1.61 natural log"}
{"Variant": "N42P", "binding fitness": "-1.52 natural log"}
{"Variant": "I28A", "binding fitness": "-1.35 natural log"}
{"Variant": "T48P", "binding fitness": "-1.5 natural log"}
{"Variant": "A29S", "binding fitness": "-1.44 natural log"}
{"Variant": "A40E", "binding fitness": "-1.52 natural log"}
{"Variant": "R30N", "binding fitness": "-1.17 natural log"}
{"Variant": "L38I", "binding fitness": "-1.37 natural log"}
{"Variant": "K39G", "binding fitness": "-1.47 natural log"}
{"Variant": "A46K", "binding fitness": "-1.49 natural log"}
{"Variant": "A46W", "binding fitness": "-1.27 natural log"}
{"Variant": "T48W", "binding fitness": "-1.31 natural log"}
{"data": "Study 5", "target": "RING finger protein unkempt homolog, zinc fingers 1-6, GST-SBP tag (UNK, Homo sapiens, UniProt Q9C0B0, residues 30-357)", "method": "RNA Bind-n-Seq", "molecule type": "RNA", "medium": "in vitro", "tested at": "not given", "notes": "RNA with constant flanks, human and mouse sites, ends assumed", "reference": "input RNA pool", "reading": "higher = stronger binding", "Target sequence (chain)": "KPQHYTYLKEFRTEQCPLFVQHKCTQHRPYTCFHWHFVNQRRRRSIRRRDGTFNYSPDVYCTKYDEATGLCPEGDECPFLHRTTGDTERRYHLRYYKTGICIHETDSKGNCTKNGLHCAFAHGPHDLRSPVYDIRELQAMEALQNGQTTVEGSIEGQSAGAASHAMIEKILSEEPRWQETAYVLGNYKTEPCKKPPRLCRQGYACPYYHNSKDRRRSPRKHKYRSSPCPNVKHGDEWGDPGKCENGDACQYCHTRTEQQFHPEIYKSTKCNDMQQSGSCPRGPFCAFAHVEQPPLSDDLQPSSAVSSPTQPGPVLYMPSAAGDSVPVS"}
{"Oligonucleotide": "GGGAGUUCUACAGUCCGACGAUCGCUCCGUGCUCCAUUCUCACUGUACUUGGUAUUAUAUUUUUUAUAAAUAAGAUUUUUAUGUAAAGCUCAGAUUUUGAUUUACAAGGACCUUGCUGCAGUAAAUAUUCCAUCAAUCUUGUGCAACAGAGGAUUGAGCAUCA", "bound/input enrichment [ratio]": 0.94}
{"Oligonucleotide": "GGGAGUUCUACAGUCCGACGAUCAGGAAGAGAAAAUGCCUGCUGUUGUAAAUGUCGGAGCCCCUCGUUCUCGGUCCUGCCUGGAACCUUUGUACGCUUUGCUCAAAAAUCAGCGAGCCUUCGCAUUUGAUGCCAAGUUUUUGUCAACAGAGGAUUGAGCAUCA", "bound/input enrichment [ratio]": 0.0744}
{"Oligonucleotide": "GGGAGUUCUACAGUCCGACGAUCUUGGGCCUCAGCCCUGGCACCAGCUCUGGCCGCAACCCUGACCCUGGCUCUGGGCCGGGCACUCUGCCGGAUCCCAGCUCCAAACCCCUCCCCGGCUCCAGAUCCACCCCCAGCCCUACUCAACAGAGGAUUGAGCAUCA", "bound/input enrichment [ratio]": 0.274}
{"Oligonucleotide": "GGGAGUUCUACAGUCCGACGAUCAAAAUACUACAAGCAGGCUUCAAGAGGAUGGGCGUUGACAAAAUAAUUCCUGUGGAUAAAUUAGUAAAAGGAAAAUUUCAGGACAAUUUUGAAUUUGUUCAAUGGUUCAAGAAGUUUUUUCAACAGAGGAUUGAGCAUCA", "bound/input enrichment [ratio]": 0.751}
{"Oligonucleotide": "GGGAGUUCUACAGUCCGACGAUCACUGACCAAUGCACCAAAUGAAUACUAAAAUGCACUUUAGAUUUGCACUUGCACUUCUGAUGGCGUUUUUCAGCCACGAUGUCCUGGCUAAGAAUCUGAAAUACAGGAUUUAUGAGGAGCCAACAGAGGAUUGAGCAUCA", "bound/input enrichment [ratio]": 0.232}
{"Oligonucleotide": "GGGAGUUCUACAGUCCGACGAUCCUUUCUGUCCCCUCCUAUACAGUUUCCGUUUCUUUUUACACUUGCUUGCCCAGCCGUCUGUAGUACACCAGAUUCAGGUGUUUGCGCUGUGUAGAAUUUGUGUGCACAGAUACGUGCUUGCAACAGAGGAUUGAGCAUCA", "bound/input enrichment [ratio]": 0.386}
{"Oligonucleotide": "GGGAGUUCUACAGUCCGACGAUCUGGCAAGGGUUGUGUAAAUCUACAUGGGGUCACUGCUCUAUAUACAAUAAGAACCCACCUUUAGGAUUUUCUUUUAGAAAAUUGUAUAUGCAGCUAGAUGAGGGAAGCCUCACCUUUAAUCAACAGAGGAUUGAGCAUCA", "bound/input enrichment [ratio]": 1.4}
{"Oligonucleotide": "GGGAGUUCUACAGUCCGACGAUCGGCAUGCAUGGAGGUGGUCCUGGUGGGCCCGGAGGUGGCCCCCACAGCUUCCCACACCCAUUACCCAGCCUGACAGGUGGGCAUGGUGGACAUCCCAUGCAGCACAACCCCAAUGGACCCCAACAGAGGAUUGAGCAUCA", "bound/input enrichment [ratio]": 0.144}
{"Oligonucleotide": "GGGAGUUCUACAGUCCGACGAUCCAACCUCAGAGCCCUGACUUCCUGGACAUCACCAACCCCAAAGCCGUAUUAGAAAACGCACUUAGGAACUUUGCCUGUCUGACCACCGGGGAUGUGAUUGCCAUCAACUAUAAUGAAAAGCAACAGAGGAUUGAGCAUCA", "bound/input enrichment [ratio]": 2.47}
{"Oligonucleotide": "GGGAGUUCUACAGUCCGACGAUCCGCGGCCCCGCGACCCUCGGGGGUCGCUGAGAGGCCCGGCGUCGGCGCCGCAGCCGUCUAGGAUUUCUGUCCAAAGGCGUCCCUGGCGUCCCCAGCCCGAAGCUCCAAGCUCGGGGCUGCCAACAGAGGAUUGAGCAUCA", "bound/input enrichment [ratio]": 0.113}
{"Oligonucleotide": "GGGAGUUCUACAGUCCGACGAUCGACUAAGAGAACACCCAAACAUUUCCAAACUGGACGCUUGUGCAGAAAAUGUCCAUAACCGCAUGUGGCCUUGAGGACUCGGGCAAGGACAAGCACAUGUAUACUCGGAGAGAGCAGAAACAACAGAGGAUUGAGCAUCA", "bound/input enrichment [ratio]": 0.135}
{"note": "A few entries again (study 1):"}
{"Variant": "I12A", "relative binding score": "75.2%"}
{"Variant": "R111H", "relative binding score": "70.1%"}
{"Variant": "A35R", "relative binding score": "65%"}
{"Variant": "T173Q", "relative binding score": "68.2%"}
{"Variant": "M68S", "relative binding score": "88.1%"}
{"Variant": "T119M", "relative binding score": "101%"}
